{"data": "Experimental data from different studies", "note": "Lines come from different studies, so protocols differ. “And” joins repeats or separate records; there may be more than shown. Numbers after ± are the reported error."}
{"SMILES": "C=Cc1c(C)c2cc3nc(c(CC(=O)[O-])c4[n-]c(cc5nc(cc1[n-]2)C(C)=C5CC)c(C)c4C(=O)[O-])C(CCC(=O)[O-])C3C.[Cu+2].[Na+].[Na+].[Na+] (stereo not shown)", "system": "Wistar rat, male", "setting": "oral, 500 mg/kg daily, 28 days", "endpoint": "serum albumin", "result": "1 ± 0.06 g/dL"}
{"SMILES": "O=C(c1cc(Cc2n[nH]c(=O)c3ccccc23)ccc1F)N1CC(CNC2CC2)C1", "endpoint": "logP", "result": 1.5}
{"SMILES": "COc1cnc2cccc(N3CCc4c(cc(Cn5ccnc5)cc4-c4cn(C)nc4C(F)(F)F)C3=O)c2c1", "system": "BALB/c nude mice, MV4-11 xenograft", "setting": "intraperitoneal, 50 mg/kg, day 10", "endpoint": "body weight", "result": "21.4 g and 24.3 g and 25.8 g and 23.4 g and 22.2 g and 22.8 g and 25.3 g and 23.7 g"}
{"SMILES": "N#[11C]c1ccc(-c2csc(NN=C3CCCC3)n2)cc1", "system": "C57BL/6 mice, male, liver", "setting": "intravenous, 3 MBq, 15 min", "endpoint": "radioactivity uptake", "result": "10.7 ± 1.1 %ID/g"}
{"SMILES": "CC[C@H](C)[C@@H](C(=O)N[C@@H](CC(C)C)C(=O)N[C@@H](CO)C(=O)N[C@@H](CO)C(=O)N[C@H](C(=O)N[C@@H](CCC(=O)O)C(=O)N[C@H](C(=O)NCC(=O)N[C@@H](CO)C(=O)N[C@@H](CC(N)=O)C(=O)N[C@H](C(=O)N1C[C@H](O)C[C@H]1C(N)=O)[C@@H](C)O)C(C)C)[C@@H](C)O)N(C)C(=O)[C@H](C)NC(=O)CN(C)C(=O)[C@H](Cc1ccccc1)NC(=O)[C@H](CO)NC(=O)[C@H](CO)NC(=O)[C@H](CCCNC(=N)N)NC(=O)[C@H](CCC(N)=O)NC(=O)[C@H](CC(C)C)NC(=O)[C@H](Cc1ccccc1)NC(=O)[C@H](Cc1c[nH]cn1)NC(=O)[C@H](C)NC(=O)[C@H](CC(C)C)NC(=O)[C@H](CCCNC(=N)N)NC(=O)[C@H](CCC(=O)O)NC(=O)[C@@H](NC(=O)[C@H](C)NC(=O)[C@@H]1CCCCn2cc(nn2)C[C@H](NC(=O)[C@H](CCCNC(=N)N)NC(=O)CC[C@H](NC(=O)CCCCCCCCCCCCCCCCCCC(=O)O)C(=O)O)C(=O)NCC(=O)N[C@@H]([C@@H](C)O)C(=O)N[C@@H](C)C(=O)N[C@@H]([C@@H](C)O)C(=O)N1)[C@@H](C)O", "test": "RP-HPLC", "system": "water", "setting": "1.0 mg/mL, 7 days, pH 6.0, 40 °C", "endpoint": "main peak area remaining", "result": "98%"}
{"SMILES": "O=C1NC2(CC2)COc2ncc(F)cc2[C@H]2COCCN2c2ccn3ncc1c3n2", "system": "Sprague-Dawley rat, male, spleen", "setting": "oral, 20 mg/kg/day, 4 weeks dosing, end of recovery", "endpoint": "organ-to-body weight ratio", "result": "0.258 ± 0.052%"}
{"SMILES": "CCOP(=O)(CNC(=O)CN1CCN(CC(=O)NCP(=O)(OCC)OCC)CCN(CC(=O)NCP(=O)(OCC)OCC)CCN(CC(=O)NCP(=O)(OCC)OCC)CC1)OCC.[177Lu+3]", "system": "octanol/water", "setting": "room temperature", "endpoint": "logP", "result": "-3.37 ± 0.19"}
{"SMILES": "CCCCCCCCCCCCCCCC(=O)N[C@@H](CCC(=O)NCCOCCOCCC(=O)NCCOCCOCCC(=O)NCCCC[C@H](NC(=O)[C@H](CC(=O)O)NC(=O)[C@H](CC(C)C)NC(=O)[C@H](Cc1ccc(O)cc1)NC(=O)[C@H](CCCCN)NC(=O)[C@H](CO)NC(=O)[C@H](Cc1ccc(O)cc1)NC(=O)[C@H](CC(=O)O)NC(=O)[C@H](CO)NC(=O)[C@@H](NC(=O)[C@H](Cc1ccccc1)NC(=O)[C@@H](NC(=O)CNC(=O)[C@H](CCC(N)=O)NC(=O)[C@@H](CO)NC(=O)[C@@H](N)Cc1c[nH]cn1)[C@@H](C)O)[C@@H](C)O)C(=O)N[C@@H](CCCNC(=N)N)C(=O)N[C@@H](CCCNC(=N)N)C(=O)N[C@@H](C)C(=O)N[C@@H](CCC(N)=O)C(=O)N[C@@H](CC(=O)O)C(=O)N[C@@H](Cc1ccccc1)C(=O)N[C@H](C(=O)N[C@@H](CCC(N)=O)C(=O)N[C@@H](Cc1c[nH]c2ccccc12)C(=O)N[C@@H](CC(C)C)C(=O)N[C@@H](CC(C)C)C(=O)N[C@@H](CC(N)=O)C(=O)N[C@H](C(=O)NCC(=O)NCC(=O)N1CCC[C@H]1C(=O)N[C@@H](CO)C(=O)N[C@@H](CO)C(=O)NCC(=O)N[C@@H](C)C(=O)N1CCC[C@H]1C(=O)N1CCC[C@H]1C(=O)N1CCC[C@H]1C(=O)N[C@@H](CO)C(N)=O)[C@@H](C)O)C(C)C)C(=O)O", "test": "item: AST", "system": "Sprague-Dawley rat, male", "setting": "subcutaneous, 100 µg/kg once daily, 14 days", "endpoint": "serum enzyme activity", "result": "132 ± 37.7 U/L"}
{"SMILES": "CC(C)C[C@H](NC(=O)[C@H](Cc1ccc(O)cc1)NC(=O)[C@H](Cc1c[nH]cn1)NC(=O)[C@H](CC(=O)O)NC(=O)[C@H](CC(C)C)NC(=O)[C@H](C)NC(=O)[C@H](CC(C)C)NC(=O)CNC(=O)CNC(=O)[C@@H](NC(=O)[C@@H](NC(=O)[C@H](CCCCN)NC(=O)CNC(=O)[C@@H](NC(=O)[C@H](CCCCN)NC(=O)[C@H](CCCCN)NC(=O)[C@H](C)NC(=O)[C@H](CCCCN)NC(=O)[C@H](CCCNC(=N)N)NC(=O)[C@H](Cc1ccccc1)NC(=O)[C@@H](NC(=O)[C@H](CO)NC(=O)[C@H](CCCCN)NC(=O)[C@H](Cc1c[nH]c2ccccc12)NC(=O)CN)C(C)C)C(C)C)[C@@H](C)O)C(C)C)C(N)=O", "system": "zebrafish embryos 4 hpf, E3 medium", "setting": "24 h", "endpoint": "chronic toxic concentration", "result": "5 µM"}
{"SMILES": "CSCC[C@H](N)C(=O)N[C@@H](C)C(=O)N[C@@H](Cc1c[nH]c2ccccc12)C(=O)N[C@@H](Cc1c[nH]cn1)C(=O)N[C@@H](CC(=O)O)C(=O)N[C@@H](CC(=O)O)C(=O)N[C@@H](CCC(=O)O)C(=O)N[C@@H](CCC(=O)O)C(=O)N[C@@H](Cc1ccccc1)C(=O)N[C@@H](C)C(=O)N[C@@H](CCCNC(=N)N)C(=O)N[C@@H](CCCNC(=N)N)C(=O)N[C@@H](CCCNC(=N)N)C(=O)N[C@@H](CCCNC(=N)N)C(=O)NCCCCCC(=O)NCCCCC(NC(=O)CCCCCNC(=O)[C@H](CCCNC(=N)N)NC(=O)[C@H](CCCNC(=N)N)NC(=O)[C@H](CCCNC(=N)N)NC(=O)[C@H](CCCNC(=N)N)NC(=O)[C@H](C)NC(=O)[C@H](Cc1ccccc1)NC(=O)[C@H](CCC(=O)O)NC(=O)[C@H](CCC(=O)O)NC(=O)[C@H](CC(=O)O)NC(=O)[C@H](CC(=O)O)NC(=O)[C@H](Cc1c[nH]cn1)NC(=O)[C@H](Cc1c[nH]c2ccccc12)NC(=O)[C@H](C)NC(=O)[C@@H](N)CCSC)C(=O)NCCCCC(NC(=O)C(CCCCNC(=O)CCCCCNC(=O)[C@H](CCCNC(=N)N)NC(=O)[C@H](CCCNC(=N)N)NC(=O)[C@H](CCCNC(=N)N)NC(=O)[C@H](CCCNC(=N)N)NC(=O)[C@H](C)NC(=O)[C@H](Cc1ccccc1)NC(=O)[C@H](CCC(=O)O)NC(=O)[C@H](CCC(=O)O)NC(=O)[C@H](CC(=O)O)NC(=O)[C@H](CC(=O)O)NC(=O)[C@H](Cc1c[nH]cn1)NC(=O)[C@H](Cc1c[nH]c2ccccc12)NC(=O)[C@H](C)NC(=O)[C@@H](N)CCSC)NC(=O)CCCCCNC(=O)[C@H](CCCNC(=N)N)NC(=O)[C@H](CCCNC(=N)N)NC(=O)[C@H](CCCNC(=N)N)NC(=O)[C@H](CCCNC(=N)N)NC(=O)[C@H](C)NC(=O)[C@H](Cc1ccccc1)NC(=O)[C@H](CCC(=O)O)NC(=O)[C@H](CCC(=O)O)NC(=O)[C@H](CC(=O)O)NC(=O)[C@H](CC(=O)O)NC(=O)[C@H](Cc1c[nH]cn1)NC(=O)[C@H](Cc1c[nH]c2ccccc12)NC(=O)[C@H](C)NC(=O)[C@@H](N)CCSC)C(N)=O (stereo partly shown)", "system": "C57BL/6 mouse female, colon", "setting": "dose not given, 3 h", "how to read": "relative to: total", "endpoint": "mean tissue distribution", "result": "2.99%"}
{"SMILES": "Cn1nc(NS(C)(=O)=O)c2c(Cl)ccc(-n3c([C@H](Cc4cc(F)cc(F)c4)NC(=O)Cn4nc(C(F)F)c5c4C(F)(F)[C@@H]4C[C@H]54)nc4nc(OCCC(F)(F)F)ccc4c3=O)c21", "system": "human, plasma", "setting": "oral, 25 mg single dose, powder in bottle, geometric mean", "endpoint": "half-life", "result": "64 h"}
{"SMILES": "CCc1nn(C)c2nc(-c3ccc(C(=O)O)cc3)nc(NCc3ccccc3)c12", "system": "male CD-1 mouse, plasma", "setting": "intravenous, 1 mg/kg, 24 h", "endpoint": "concentration", "result": "1 ng/mL"}
{"SMILES": "CC(C)=CCC/C(C)=C/CCn1cc(CC(P(=O)(O)O)P(=O)(O)O)nn1", "system": "CD-1 mice, pooled bile", "setting": "intravenous, 0.3 mg/kg, 24 h", "endpoint": "bile concentration", "result": "not detected"}
{"SMILES": "CSCC[C@H](NC(=O)[C@@H](NC(=O)[C@H](CC(C)C)NC(=O)[C@@H](NC(=O)[C@H](Cc1c[nH]cn1)NC(=O)CCCCCNC(=O)[C@H](CCCNC(=N)N)NC(=O)[C@H](CCCNC(=N)N)NC(=O)[C@H](CCCNC(=N)N)NC(=O)[C@H](CCC(N)=O)NC(=O)[C@H](CCCNC(=N)N)NC(=O)[C@H](CCCNC(=N)N)NC(=O)[C@H](CCCCN)NC(=O)[C@H](CCCCN)NC(=O)[C@H](CCCNC(=N)N)NC(=O)CNC(=O)[C@@H](N)Cc1ccc(O)cc1)C(C)C)C(C)C)C(=O)N[C@@H](CS)C(=O)N[C@@H](C)C(=O)N[C@H](C(N)=O)[C@@H](C)O", "system": "C57BL/6J mice", "setting": "Alzet osmotic pump, 3 mg/kg, 8 weeks", "endpoint": "ALT", "result": "19 U/L and 24 U/L and 30 U/L"}
{"SMILES": "CC[C@H](C)[C@H](NC(=O)[C@H](CCCCN)NC(=O)CNC(=O)[C@H](CC(C)C)NC(=O)[C@H](Cc1ccccc1)NC(=O)[C@H](CCCCN)NC(=O)[C@H](CO)NC(=O)[C@H](Cc1ccccc1)NC(=O)[C@H](Cc1c[nH]c2ccccc12)NC(=O)[C@H](CCC(N)=O)NC(=O)[C@@H](NC(=O)[C@H](Cc1ccccc1)NC(=O)CCCCCNC(=O)CN1CCN(CC(=O)O)CCN(CC(=O)O)CCN(CC(=O)O)CC1)C(C)C)C(=O)N[C@@H](CCC(=O)O)C(=O)N1CCC[C@H]1C(=O)N[C@@H](CC(=O)O)C(=O)N[C@H](C(=O)N[C@@H](CO)C(=O)N[C@@H](CCC(N)=O)C(=O)N[C@H](C(=O)N[C@@H](CCC(N)=O)C(=O)N[C@@H](CC(=O)O)C(=O)N1CCC[C@H]1C(=O)N[C@@H](CC(N)=O)C(=O)N[C@@H](CC(=O)O)C(=O)N[C@@H](CCC(N)=O)C(=O)N[C@@H](Cc1ccc(O)cc1)C(=O)N[C@@H](CCC(=O)O)C(=O)N1CCC[C@H]1C(=O)N[C@@H](Cc1ccccc1)C(=O)O)C(C)C)C(C)C [copper-64 labelled]", "system": "C57BL/6 mice, male, tumour-free, spleen", "setting": "24 h", "endpoint": "tissue uptake", "result": "2.07 ± 0.09 %ID/g"}
{"SMILES": "CCCCCCCCCCCC(=O)C(C)C(=O)N1CCC[C@H]1C(=O)NC(C)(C)C(=O)NC(C)(C)C(=O)NC(C)(C)C(=O)N[C@](C)(CC)C(=O)NCCC(=O)N[C@@H](C)C(=O)N[C@](C)(CC)C(=O)N[C@@H](C)C(=O)N[C@@H](CC(C)C)C(=O)N[C@](C)(CC)C(=O)NCCC(=O)N[C@@H](C)C(=O)N[C@](C)(CC)C(=O)NCCC(=O)N[C@@H](C)C(=O)NC(C)(C)C(=O)NC(C)(C)C(=O)NC(C)(C)C(=O)N[C@@H](C)C(=O)N[C@@H](CC(=O)O)C(=O)O (stereo partly shown)", "test": "LC-MS", "system": "buffer with human neutrophil elastase", "setting": "40 µM, 10 min, pH 7.5, 37 °C", "how to read": "relative to: 0 h", "endpoint": "remaining intact peptide", "result": "75.3% and 89.5% and 80.9%"}
